Measurements pooled from the literature.
“And” joins repeats or separate records; there may be more than shown. ± gives the spread as reported. Converted amounts (≈) assume the structure as drawn.
Sequence of UniProt Q16891 (whole entry, looked up): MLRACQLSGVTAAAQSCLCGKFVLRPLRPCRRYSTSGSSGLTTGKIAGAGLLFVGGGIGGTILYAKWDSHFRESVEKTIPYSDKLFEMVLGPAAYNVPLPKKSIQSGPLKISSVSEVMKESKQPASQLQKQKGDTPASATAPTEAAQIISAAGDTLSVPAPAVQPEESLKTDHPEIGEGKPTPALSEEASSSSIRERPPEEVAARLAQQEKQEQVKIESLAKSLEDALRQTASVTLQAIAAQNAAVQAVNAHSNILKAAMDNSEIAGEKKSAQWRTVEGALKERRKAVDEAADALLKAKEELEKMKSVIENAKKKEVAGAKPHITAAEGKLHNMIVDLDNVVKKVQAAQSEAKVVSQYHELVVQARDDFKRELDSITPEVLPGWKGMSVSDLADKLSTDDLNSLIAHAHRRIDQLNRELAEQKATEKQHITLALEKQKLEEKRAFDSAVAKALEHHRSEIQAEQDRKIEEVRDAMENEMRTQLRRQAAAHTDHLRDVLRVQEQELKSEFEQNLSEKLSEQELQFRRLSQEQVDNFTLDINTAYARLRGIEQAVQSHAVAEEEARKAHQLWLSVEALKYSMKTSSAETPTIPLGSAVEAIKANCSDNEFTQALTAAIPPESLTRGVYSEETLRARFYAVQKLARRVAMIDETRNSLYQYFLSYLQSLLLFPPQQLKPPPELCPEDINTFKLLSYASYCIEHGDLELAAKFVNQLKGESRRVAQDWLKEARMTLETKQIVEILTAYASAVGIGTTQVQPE
Sequence of UniProt Q9Y271 (whole entry, looked up): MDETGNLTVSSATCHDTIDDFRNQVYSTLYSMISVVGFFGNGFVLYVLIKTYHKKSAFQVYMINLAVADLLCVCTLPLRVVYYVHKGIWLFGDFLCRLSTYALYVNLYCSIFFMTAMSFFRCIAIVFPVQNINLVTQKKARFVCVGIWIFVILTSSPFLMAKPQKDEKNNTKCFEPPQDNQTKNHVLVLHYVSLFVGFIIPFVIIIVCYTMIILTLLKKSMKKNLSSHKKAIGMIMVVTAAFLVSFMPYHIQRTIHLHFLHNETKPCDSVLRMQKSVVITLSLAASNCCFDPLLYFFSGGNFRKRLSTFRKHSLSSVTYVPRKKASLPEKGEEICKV

Structure (SMILES) = CO[C@H]1C[C@@H]2CC[C@@H](C)[C@@](O)(O2)C(=O)C(=O)N2CCCC[C@H]2C(=O)O[C@H]([C@H](C)C[C@@H]2CC[C@@H](OC(=O)NCCOCCOCCOCCOCCOCCOCCOCCOCCC(=O)N3CCc4cc(Cn5nc(-c6ccc7oc(N)nc7c6)c6c(N)ncnc65)ccc4C3)[C@H](OC)C2)C[C@@H](O)[C@H](C)/C=C(\C)[C@@H](O)[C@@H](OC)C(=O)[C@H](C)C[C@H](C)/C=C/C=C/C=C/1C; test system = patients with advanced solid tumours; setting = intravenous, dose not given, any grade; endpoint = incidence of Headache TRAE; result = 15.8%
Structure (SMILES) = C[C@H]1O[C@@H](O[C@H]2CC[C@@]3(C)[C@@H](CC[C@]4(C)[C@@H]3C=C[C@]35OC[C@@]6(CCC(C)(C)C[C@H]63)[C@@H](O)C[C@]54C)[C@]2(C)CO)[C@H](O)[C@@H](O[C@@H]2O[C@H](CO)[C@@H](O)[C@H](O)[C@H]2O)[C@H]1O; test system = Mus musculus, chronic-plus-binge ethanol-fed, AAV8-TBG-Null vector, plasma; setting = oral, high dose, 5 h; endpoint = total cholesterol; result = 2.65 mM and 2.79 mM and 3 mM and 2.75 mM and 2.28 mM
Structure (SMILES) = CN(C)CCCN1c2ccccc2Sc2ccccc21; target or system = Plasmodium falciparum; test system = W2; endpoint = IC50; result = 1 µM
Structure (SMILES) = Oc1c(Br)cc(Br)cc1Oc1ccc(Br)cc1Br; assay = sulfonation; test system = human liver cytosol; endpoint = Vmax/Km; result = 179 ± 29.6 µL/min/mg
Structure (SMILES) = CC1(C(=O)O)C2CCC(O2)C1(C)C(=O)O (centres unmarked); target or system = Plasmodium falciparum; test system = W2; endpoint = IC50; result = 1.26 µM
Structure (SMILES) = Clc1cc2c(cc1Cl)Oc1cc(Cl)c(Cl)cc1O2; assay = RNA-Seq, measured: Ptgir; test system = female Sprague-Dawley rat, liver; setting = 10 µg/kg; scale = reference: vehicle; endpoint = mRNA level; result = 1.7 fold
Structure (SMILES) = CC[C@H](C)[C@@H]1NC(=O)[C@@H]2CCCN2C(=O)[C@H](CC(C)C)NC(=O)[C@H](CC(C)C)NC(=O)CNC(=O)[C@@H](NC(=O)[C@@H](NC(=O)[C@H](CC(=O)O)NC(=O)CNC(=O)[C@@H](NC(=O)[C@H](C)NC(=O)CNC(=O)[C@H](CCCCN)NC(=O)[C@H](CC(C)C)NC(=O)[C@H](CC(C)C)NC(=O)[C@H](CCCCN)NC(=O)CNC(=O)[C@@H](NC(=O)[C@@H](N)CC(C)C)C(C)C)C(C)C)C(C)C)CSSC[C@@H](C(=O)O)NC1=O; assay = RNA-seq, measured: Fgr mRNA; test system = mouse traumatic brain injury, frontal cortex and hippocampus; setting = dose not given; scale = reference: TBI plus compound vs TBI; endpoint = log2 fold change; result = -2.74
Structure (SMILES) = Cn1cnc(CCN)c1; assay = binding, MIDAS equilibrium dialysis LC-MS; test system = A2AR-BRIL thermostabilized; setting = concentration not given; scale = reference: no-protein control; endpoint = log2 fold change; result = -0.305
Structure (SMILES) = CC[C@H](C)[C@H](NC(=O)[C@H](Cc1ccccc1)NC(=O)[C@H](CCC(=O)O)NC(=O)[C@H](CCCNC(=N)N)NC(=O)[C@H](C)NC(=O)[C@H](C)NC(=O)[C@H](CCC(N)=O)NC(=O)[C@H](CCC(=O)O)NC(=O)[C@H](CCC(=O)O)NC(=O)[C@H](CC(C)C)NC(=O)[C@H](Cc1ccc(O)cc1)NC(=O)[C@H](CO)NC(=O)[C@H](CO)NC(=O)[C@@H](NC(=O)[C@H](CC(=O)O)NC(=O)[C@H](CO)NC(=O)[C@@H](NC(=O)[C@H](Cc1ccccc1)NC(=O)[C@@H](NC(=O)CNC(=O)[C@H](CCC(=O)O)NC(=O)[C@H](C)NC(=O)CCc1c[nH]cn1)[C@@H](C)O)[C@@H](C)O)C(C)C)C(=O)N[C@@H](C)C(=O)N[C@@H](Cc1c[nH]c2ccccc12)C(=O)N[C@@H](CC(C)C)C(=O)N[C@H](C(=O)N[C@@H](CCCNC(=N)N)C(=O)NCC(=O)N[C@@H](CCCNC(=N)N)C(=O)N[C@@H](CCCCNC(=O)COCCOCCNC(=O)COCCOCCNC(=O)CC[C@H](NC(=O)CCCCCCCCCCCCCCCCC(=O)O)C(=O)O)C(=O)NCC(=O)NCC(=O)N[C@@H](CO)C(=O)N[C@@H](CCCCNc1c(NCCCCCN(O)C(=O)CCC(=O)NCCCCCN(O)C(=O)CCC(=O)NCCCCCN(O)C(C)=O)c(=O)c1=O)C(=O)O)C(C)C [zirconium-89 labelled]; test system = rat, intestine; setting = sc, 3 nmol/kg, 168 h, ex vivo; endpoint = tissue uptake; result = 0.09 %ID/g
Structure (SMILES) = N#CC(=Cc1ccccc1)C(N)=O; setting = pH 7.4; endpoint = β-elimination rate constant; result = > 0.69 min⁻¹
Structure (SMILES) = OC(Cn1cncn1)(Cn1cncn1)c1ccc(F)cc1F; assay = forced swim test; test system = CD-1 mice; setting = dose not given, without ketamine; scale = reference: vehicle; endpoint = immobility time; result = no effect
Structure (SMILES) = Cc1nc(Nc2ccc(CC(=O)O)cc2)nc(Nc2ccc(F)c(C(F)(F)F)c2)c1C; test system = mice, chronic ethanol plus binge, liver; setting = intraperitoneal, 0.3 mg/kg daily, ethanol diet 4 weeks, dosed last two; scale = reference: vehicle; endpoint = triglyceride content; result = no effect
Structure (SMILES) = COc1cc(Nc2ncc(F)c(Nc3ccc4c(n3)NC(=O)C(C)(C)O4)n2)cc(OC)c1OC; target or system = Cysteinyl leukotriene receptor 1 (CYSLTR1, Homo sapiens, UniProt Q9Y271); assay = binding; endpoint = IC50; result = > 10 µM
Structure (SMILES) = NC(CP(=O)(O)O)C(=O)O (racemic); assay = binding, MIDAS equilibrium dialysis LC-MS; test system = A2AR-BRIL thermostabilized; setting = concentration not given; scale = reference: no-protein control; endpoint = log2 fold change; result = -0.0104
Structure (SMILES) = COc1cc2c(Oc3ccc4[nH]c(C)cc4c3F)ccnc2cc1OCC1(N)CC1; test system = paediatric recurrent refractory sarcoma; setting = 8 mg/kg; endpoint = grade 3 Thrombocytopenia; result = 0%
Structure (SMILES) = [131I-].[Na+]; assay = ATA response criteria; test system = human, papillary thyroid cancer, distant metastases; setting = 3700 MBq; endpoint = biochemical incomplete response; result = 13.6%
Structure (SMILES) = CCCCC1(CCCC)CN(c2ccccc2)c2cc(SC)c(OCC(=O)N[C@@H](C(=O)NCC(=O)O)c3ccccc3)cc2S(=O)(=O)C1; assay = measured: HDL cholesterol; test system = human, serum; setting = 5 mg once daily, day 2; endpoint = serum HDL-C; result = 48.4 mg/dL
Structure (SMILES) = C[C@H]1CN(c2n[nH]c3nc(N[C@H]4CC[C@H](NS(=O)(=O)CCC(F)(F)F)CC4)ncc23)CCO1; target or system = MICOS complex subunit MIC60 (Homo sapiens, UniProt Q16891); assay = Kinobeads competition, measured: IMMT; setting = 0.8 µM, unit not given; scale = reference: vehicle; endpoint = remaining binding; result = 1.1
Structure (SMILES) = CN1CCN(S(=O)(=O)c2cc([N+](=O)[O-])ccc2N(CCOS(C)(=O)=O)CCOS(C)(=O)=O)CC1; test system = NSG mice, sample CJ PDX; setting = intraperitoneal, 25 mg/kg weekly x3; scale = reference: treated over vehicle; endpoint = EFS ratio (T/C); result = > 10.8
Structure (SMILES) = N=C(N)NCCC[C@H](NC(=O)CCCCCNC(=O)[C@H](CCCNC(=N)N)NC(=O)[C@H](CCCNC(=N)N)NC(=O)CCCCCNC(=O)[C@H](CCCNC(=N)N)NC(=O)[C@H](CCCNC(=N)N)NC(=O)CCCCCNC(=O)[C@H](CCCNC(=N)N)NC(=O)[C@H](CCCNC(=N)N)NC(=O)CCCCCNC(=O)[C@@H](N)CCCNC(=N)N)C(=O)NCCCCCC(=O)NCCC(=O)O; assay = broth microdilution; test system = ATCC 1720 resistant strain, Mueller-Hinton broth; endpoint = MIC; result = 48 µM (≈ 91.4 µg/mL)
Structure (SMILES) = C=CCNc1c(O)cc2c(O)c1C[C@@H](C)C[C@H](OC)[C@H](O)[C@@H](C)/C=C(\C)[C@H](OC(N)=O)[C@@H](OC)/C=C\C=C(/C)C(=O)N2; test system = patients with STS, GIST or other tumours; setting = dose not given; endpoint = median time to tumour progression; result = 10.6 weeks
Structure (SMILES) = COc1ncc(-c2nc3c(n2C(C)C)[C@H](c2ccc(Cl)cc2)N(c2cc(Cl)cn(C)c2=O)C3=O)c(OC)n1; assay = antileukemic activity, measured: treatment failure, resistant disease; test system = human, acute myeloid leukaemia; setting = 20 to 30 mg, low-dose; endpoint = best overall response; result = 57.1%
Structure (SMILES) = C[C@]1(CO)Cc2ncn(-c3ccc(C#N)c(Cl)c3)c2C(=O)O1; test system = human; setting = 80 mg single dose; endpoint = urinary sodium excretion Ae(0-24h); result = 297 mmol

Some of these lines once more:
Structure (SMILES) = OC(Cn1cncn1)(Cn1cncn1)c1ccc(F)cc1F; assay = forced swim test; test system = CD-1 mice; setting = dose not given, without ketamine; scale = reference: vehicle; endpoint = immobility time; result = no effect
Structure (SMILES) = Cc1nc(Nc2ccc(CC(=O)O)cc2)nc(Nc2ccc(F)c(C(F)(F)F)c2)c1C; test system = mice, chronic ethanol plus binge, liver; setting = intraperitoneal, 0.3 mg/kg daily, ethanol diet 4 weeks, dosed last two; scale = reference: vehicle; endpoint = triglyceride content; result = no effect
